Results from different studies.
Numbered parts are unrelated; each lists some results of a single study.

Block 1
Target: RING finger protein unkempt homolog, zinc fingers 1-6, GST-SBP tag (UNK, Homo sapiens, UniProt Q9C0B0, residues 30-357)
Technique: RNA Bind-n-Seq
Form: RNA
Sample: in vitro
Concentration: not given
Notes: RNA with constant flanks, human and mouse sites, ends assumed
Baseline: input RNA pool
Direction: higher = stronger binding
Shared flanks, not repeated: GGGAGUUCUACAGUCCGACGAUC … CAACAGAGGAUUGAGCAUCA
Target sequence (chain): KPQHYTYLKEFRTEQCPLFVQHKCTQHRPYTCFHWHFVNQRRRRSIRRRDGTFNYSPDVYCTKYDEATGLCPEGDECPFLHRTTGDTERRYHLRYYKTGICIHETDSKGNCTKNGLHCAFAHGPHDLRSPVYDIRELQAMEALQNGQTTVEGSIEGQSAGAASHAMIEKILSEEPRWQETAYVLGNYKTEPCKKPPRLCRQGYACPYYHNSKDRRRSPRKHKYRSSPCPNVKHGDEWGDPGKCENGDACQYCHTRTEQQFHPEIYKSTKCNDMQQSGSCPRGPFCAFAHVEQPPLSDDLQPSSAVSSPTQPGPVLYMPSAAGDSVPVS
Strand | bound/input enrichment [ratio]
CACUCGAGCCAGCACCACCGUUCUCACGCCCUGAGCUGCAGACAGCUAGGCGGUUUUAUCUAGUUUGAACCAGGCUGCUGGAGCUUGCUCCCUCCCGCCCUCUCUCUUUUUUUUCCACGG | 0.263
GCCUUGUGUGCCCUUCGCUUUAUGAGGCGGAUAAUUGGACUUAAAGAUGAAUUUUAUAAUCGUUACAUCACCAAGGGAAAUCUUUUUGAGCCAGUUAUAAAUGCACUUCUGGAUAAUGGA | 0.283
AUCUUAAAAUGGCUUACCCUCCGGUUUUUCGACACCAAUACAAGCGUUCUAAUGAAAGCACUGGAAUAUUUAAAAUUGCUUUUCACCCUGCUGAGUGAGGAAGAGUAUCAUCUUACUGAG | 0.3
AGUGUGGACAAAGGAUGCAAAGCUGUGCUGUGGGCACAGUACUGACGGGGCUCUCAGGGCUGGGAGGACCCCAGUGCCCUCCUCAGAAGAAGCACAUGGGCUCCUGCAGCCCUGUCCUGG | 0.0997
CCGGACGACGAGGCUGCCAUGGGCAUUAAAAGCUGUGACCCCAAAGGCCCUCUUAUGAUGUAUAUUUCCAAAAUGGUGCCAACCUCCGACAAAGGUCGGUUCUACGCCUUUGGACGAGUC | 0.132
AACCACUGACGUGUUUUUAUUUCCUUCUAUAUGAUUUUAAGAUGUGUUUUCUGCAUUCUGUAUAGAAACAUAUCAAACUAAAUAAAAGCAGUGUCUUUAUUACAAUGUCAUUGCCUCUGA | 0.189
GUAGAAUCUUGUUUGUAGGCUGAAUUUUAAUCUGUAUUUAUUGUCUUUUGUAUCUCAGAAAUUAGAAACUUGCUACAGACUUACCCGUAAUAUUUGUCAAGAUCAUAGCUGACUUUAAAA | 1.13
AUUGUUCACAGAGACCUCAAGGCUGAAAAUCUGUUAUUAGAUGCGGAUAUGAACAUUAAAAUAGCAGAUUUUGGUUUUAGCAAUGAAUUUACUGUUGGCAGUAAACUAGACACGUUUUGU | 1.04
GUGAAAUUUGGAGAGAGCAUUGAGGACCUACAGACCUGCCGGCUCCUAAUUAAGCAUUACAUUCCACCAGGACUCUUUGUGGAUCCCUAUGAGUUGGCUUCACUACGAGAAAGGAACUUA | 0.399
CAUAGAGAAAUAAUUUCAUCCCCCAACUGUAGUAAUUGUUACAAUUUUAUAUAAAAAAUUAAUAGUAUAUGCAGAAAAUGACCUGAAUUCCAUCCGCAACAAGGACACAUGGCUUUACAU | 58
UGAUAUUUUUUGUCCUGGUCAUUUUCUUGGGCUCAUUUUAUUUGGUGAAUUUGAUCCUGGCUGUGGUGGCCAUGGCCUAUGAGGAGCAGAAUCAGGCCACCUUGGAAGAAGCAGAACAAA | 0.304

Block 2
Target: RNA binding protein fox-1 homolog 2, RRM domain, GST-SBP tag (RBFOX2, Homo sapiens, UniProt O43251-10, residues 100-194)
Technique: RNA Bind-n-Seq
Form: RNA
Sample: in vitro
Concentration: 365 nM
Notes: natural RNA segment, single round, ends assumed
Baseline: no-protein control
Direction: higher = stronger binding
Shared flanks, not repeated: GGGAGUUCUACAGUCCGACGAUC … UGGAAUUCUCGGGUGCCAA
Construct (chain): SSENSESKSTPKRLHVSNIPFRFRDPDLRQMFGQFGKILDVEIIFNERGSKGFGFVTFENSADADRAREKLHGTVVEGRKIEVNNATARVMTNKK
Strand | RBNS enrichment (R)
UCUGAGGCCCUAGAGGAGUUUGUAUCAAUUUGUGAGUAUUAAUGUCAGUACUACCAGCACUUUGCCAAAACUGUCAGAGGGACCCGUUUCUAGAGUGAGUCCCAGUUACA | 0.312
AGCUGGGUGUUUUCAAAUUUUCUUGAAAAGUGAGUUGUGUCACAGAAUGUGGAUAGUGAGAUUUGCUUCUGGGCCUGUGGUUGGACGCCCACAGCUUCCUUUGGAGGGGC | 2.53
GAUAACAUUUUGUAACAUUGUGCUGCCUUAGAGUUUGUACUGUGAGUUCUAUCAGUAUUUAUGUUGAAAUUUCUAACAUGGAUUCUAGUCUCUAUUCUGUUAAUUUAAUU | 0.738
AGUGUGCCUGUGUAUAUAACUCUGUAAAGACACUGAAAAUUAUACUAACUUAUUUAUGUUAAAAAGAGAUUUUUUUUUAAUCUAGACAAUAUACAAGCCAAAGUGGCAUG | 0.522
UUCCUUACUCCUGUUGGCUUGAUGGAACAGGUGCAUUCACACUAUGAAACAGAAAGAUCUGUCCAAGGACACAGCUUGUAUGAAAGGGUUGAAUUUGGGCUCCAUCAGUA | 2.38
CCAUGCAUGAGUGGUUCUUGCACCCCUGAAUGAGGAAUGCUUCCUCUGUGACAGGCUCCUCCCCACCCCCGGAUAUCCCGGUGCUGCCAGUAGUGAGUGGACAGAUGGAA | 21.5
UUCCCUCUUCCACCCCAGCUCCAGCCCUGGUCUUUCUUCCUCUUUCCCAUAACAGAAGCUAUGGCCCUGGCCAUGUCAUCGUGUUCCUGUGUCCCUUGCAUGUUCCCCAC | 8.87
AACUUGAGAUUUUUAAAGUUAACUAUUAACACAGUUUUAACAUAAGUUAUCCCACUGGGUUUAAAAGCAUCUUGAAUGUAUAACCCUUCUGUAACCCAGGCUGGUCUUUG | 0.47
GAUGAACCAGAUCCAGUCUGUAGAGGUUUGACAUUCGCCUGCCUCGGUUCUCCUCUUCCUCCACGCCGCCCCCUGAGCCCCCCUACAUCGGUCCCCCUGCUGCUCUGUCC | 0.704
CCUUUUCAGGGUAAUCUUUGUGGCACAAACGAUAGCAUUUCCAAGCUUUAGAGUUUUCUGAAUUCCUGCGCCUUCCUGACGUGAGCCCUGAGCGAUCUUCUAUGCAGUUC | 0.327
UUAGACACUACAGUACUAAGACAAUGUUAAAUAUAUUAUUUGCCUCUAUAACAACUUAAUGUAUUAAGUUCUGACUGUGCUUCAUAUCAUGUACCUCUCUAGUGAAGUAG | 0.342
ACUCUCCCAGAAGAAAACUUGUUUGCCUUCAACCUUGUUUUCCAGUUCUGCAGCGUCAUGGAGGAUGGGCGGGCGCCAUGCAUGUGCAGGCUCACACUCCCAGCCUCCGC | 1.34

Block 3
Target: Histone acetyltransferase KAT6A, winged helix 2, GST fusion (KAT6A, Homo sapiens, UniProt Q92794, residues 85-181)
Technique: protein binding microarray
Form: double-stranded DNA, one strand shown
Sample: in vitro
Concentration: not given
Notes: 8-mer, flanks averaged, mean of 2 arrays, mostly near background
Baseline: not given
Direction: higher = stronger binding
Construct (chain): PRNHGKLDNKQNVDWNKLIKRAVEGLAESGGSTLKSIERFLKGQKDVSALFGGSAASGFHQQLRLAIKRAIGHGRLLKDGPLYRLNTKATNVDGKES
Strand | E-score
CCACCACC | -0.00381
GCACCTAA | 0.0335
CAGCCTTC | -0.0265
CATTAGAG | -0.049
CAGCTTAA | 0.061
CACACTAG | 0.0298
GGTGCGAA | 0.0436
GGTGGTAA | 0.0847
CGCTGCAA | 0.0629
AAGCCTGG | 0.0269
TCTACACA | -0.00713
CCAACACA | 0.0992
CAGTGGGA | 0.0295
ATTTGAGA | -0.189
ATTCGATG | -0.0812
ACCGCGAT | 0.131
ATCCCCAC | 0.068
AAACCAGA | 0.105
GCGACTTA | -0.126
CACATGAC | -0.232
AGTGGAGA | -0.0646
GGCGAGAA | 0.121
CGCGCGTC | 0.0997
ACTGGCAT | -0.168

Block 4
Target: Prothrombin, mature alpha-thrombin (F2, Homo sapiens, UniProt P00734)
Technique: aptamer microarray, sandwich
Form: DNA with 2'F-ANA
Sample: in vitro
Concentration: 200 nM
Notes: whole 15-mer aptamer, many near background
Added: Cy3 exosite-II aptamer, 400 nM
Direction: higher = stronger binding
Strand: GGTTGGTGTGGTTGG
Modification | mean fluorescence intensity [a.u.]
2'F-ANA at 1 2 3 6 7 9 11 12 13 14 | 72.3
2'F-ANA at 1 2 8 10 11 13 14 | 48.5
2'F-ANA at 3 5 7 11 13 15 | 93
2'F-ANA at 2 3 6 9 11 12 14 | 375
2'F-ANA at 1 4 5 6 9 12 14 15 | 109
2'F-ANA at 1 2 4 6 7 10 11 14 15 | 48.7
2'F-ANA at 2 5 6 10 11 12 13 15 | 49
2'F-ANA at 2 3 5 9 13 15 | 70.1
2'F-ANA at 2 5 13 15 | 53
2'F-ANA at 1 2 3 4 6 8 9 13 14 15 | 59
2'F-ANA at 1 4 5 9 10 15 | 286
2'F-ANA at 1 5 6 7 9 11 | 57.4
2'F-ANA at 2 5 8 11 12 15 | 120
2'F-ANA at 1 5 6 7 8 9 10 11 13 14 | 81.8
2'F-ANA at 1 2 5 6 9 12 14 | 47.2
2'F-ANA at 1 2 4 5 6 7 8 9 | 67.1
2'F-ANA at 1 2 4 5 8 9 10 12 14 | 48.4

Excerpt of the above (block 2):
Strand | RBNS enrichment (R)
UCUGAGGCCCUAGAGGAGUUUGUAUCAAUUUGUGAGUAUUAAUGUCAGUACUACCAGCACUUUGCCAAAACUGUCAGAGGGACCCGUUUCUAGAGUGAGUCCCAGUUACA | 0.312
UUCCUUACUCCUGUUGGCUUGAUGGAACAGGUGCAUUCACACUAUGAAACAGAAAGAUCUGUCCAAGGACACAGCUUGUAUGAAAGGGUUGAAUUUGGGCUCCAUCAGUA | 2.38
GAUGAACCAGAUCCAGUCUGUAGAGGUUUGACAUUCGCCUGCCUCGGUUCUCCUCUUCCUCCACGCCGCCCCCUGAGCCCCCCUACAUCGGUCCCCCUGCUGCUCUGUCC | 0.704
AGUGUGCCUGUGUAUAUAACUCUGUAAAGACACUGAAAAUUAUACUAACUUAUUUAUGUUAAAAAGAGAUUUUUUUUUAAUCUAGACAAUAUACAAGCCAAAGUGGCAUG | 0.522
CCUUUUCAGGGUAAUCUUUGUGGCACAAACGAUAGCAUUUCCAAGCUUUAGAGUUUUCUGAAUUCCUGCGCCUUCCUGACGUGAGCCCUGAGCGAUCUUCUAUGCAGUUC | 0.327
GAUAACAUUUUGUAACAUUGUGCUGCCUUAGAGUUUGUACUGUGAGUUCUAUCAGUAUUUAUGUUGAAAUUUCUAACAUGGAUUCUAGUCUCUAUUCUGUUAAUUUAAUU | 0.738
AGCUGGGUGUUUUCAAAUUUUCUUGAAAAGUGAGUUGUGUCACAGAAUGUGGAUAGUGAGAUUUGCUUCUGGGCCUGUGGUUGGACGCCCACAGCUUCCUUUGGAGGGGC | 2.53
